Results of several laboratories.
Each line is one published result; not all experiments were run side by side.
Target: Acetylcholinesterase (ACHE, Homo sapiens, UniProt P22303)
Chain of UniProt P22303 (whole entry, looked up): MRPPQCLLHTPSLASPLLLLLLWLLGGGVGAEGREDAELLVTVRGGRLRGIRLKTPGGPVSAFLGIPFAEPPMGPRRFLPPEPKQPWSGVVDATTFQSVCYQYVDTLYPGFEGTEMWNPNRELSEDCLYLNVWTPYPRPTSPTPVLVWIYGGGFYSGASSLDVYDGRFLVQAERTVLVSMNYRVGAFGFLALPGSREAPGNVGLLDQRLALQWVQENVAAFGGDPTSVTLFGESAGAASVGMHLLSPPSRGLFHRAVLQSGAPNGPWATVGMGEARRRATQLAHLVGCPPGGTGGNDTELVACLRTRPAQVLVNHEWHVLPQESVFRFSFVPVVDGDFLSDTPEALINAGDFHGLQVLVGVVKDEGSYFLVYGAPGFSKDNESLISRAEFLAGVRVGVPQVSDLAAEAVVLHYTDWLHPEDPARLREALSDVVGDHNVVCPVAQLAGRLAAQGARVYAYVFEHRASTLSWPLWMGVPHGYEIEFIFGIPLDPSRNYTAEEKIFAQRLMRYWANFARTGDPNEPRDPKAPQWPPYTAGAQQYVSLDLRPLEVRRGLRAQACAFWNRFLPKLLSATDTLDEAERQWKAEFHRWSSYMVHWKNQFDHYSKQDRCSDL

CCc1nc2ccc(C(=O)NCCCn3ccnc3)cn2c1N(C)Cc1ccc(N(C)C)cc1
inhibition (enzyme activity, inhibitor; SH-SY5Y; IC50 concentration): 10%

Cc1ccc2cc(C(=O)N3CCCC3Cn3ccnc3)ccc2n1 (stereo not shown)
inhibition (enzyme activity, inhibitor, Ellman; 10 µM): 21%

CCOC(=O)[C@](CC)(CCCSCCOCCOCCNC(=O)c1ccc(-c2c3ccc(=N)c(S(=O)(=O)O)c-3oc3c(S(=O)(=O)O)c(N)ccc23)c(C(=O)O)c1)NC(=O)c1ccc(C2CC2)c(Cc2ccc(F)cc2)n1
inhibition (enzyme activity, inhibitor; 10 µM): -5%

Cc1ccccc1C=Cc1nnc([C@H]2OCC[C@H]2Cn2ccnc2)o1
inhibition (enzyme activity, inhibitor, Ellman; 10 µM): 2.8%

Cc1ccc2c(n1)c(-c1cccc(S(C)(=O)=O)c1)c(C)n2C/C(F)=C/CN
inhibition (cell-free assay; 10 µM): -16%

COc1ccc(C#CC2=C[C@H]3C[C@@]4(OC(=O)C=C24)[C@H]2CC[C@H](C(OC)OC)N32)cc1
inhibition (enzyme activity, inhibitor; 10 µM): 0%

Cc1cc(-c2ccc3ccccc3c2)nnc1NCCN1CCN(C)CC1
inhibition (enzyme activity, inhibitor; concentration not given): negative

O=C(c1cc(Cc2n[nH]c(=O)c3ccccc23)ccc1F)N1CC(CNC2CC2)C1
inhibition (enzyme activity, inhibitor; 10 µM): 37%

CCC(O)CN1CCN(C(=O)Cc2cn3ccccc3n2)CC1 (stereo not shown)
inhibition (enzyme activity, inhibitor, Ellman; 10 µM): 15.1%

O=C(Nc1cccnc1)c1cccc(C2(CNCc3ccc(F)c(F)c3)CC2)c1
inhibition (enzyme activity, inhibitor; SH-SY5Y; concentration not given): 20%

COc1ccc(F)cc1S(=O)(=O)Nc1cnc2c(c1)C(=O)NCCO2
inhibition (enzyme activity, inhibitor; 10 µM): 1%

Cc1ccccc1CCc1nnc([C@H]2OCC[C@H]2Cn2ccnc2)o1
inhibition (enzyme activity, inhibitor, Ellman; 10 µM): 24.5%

CCCCNC(=O)c1ccc2nc(CC)c(N(C)Cc3ccc(OC)cc3)n2c1
inhibition (enzyme activity, inhibitor; SH-SY5Y; concentration not given): 40%
